Published values from different studies.
Protocols differ between the studies behind these lines. Numbers after ± are the reported error. ≈ marks a conversion by molar mass, not a printed value.
ALB: Albumin (ALB, Bos taurus, UniProt P02769)

By UniProt entry, the sequences of proteins in these tests, tags left out. Residues count along the entry.
UniProt P02769, 25-607 limits assumed: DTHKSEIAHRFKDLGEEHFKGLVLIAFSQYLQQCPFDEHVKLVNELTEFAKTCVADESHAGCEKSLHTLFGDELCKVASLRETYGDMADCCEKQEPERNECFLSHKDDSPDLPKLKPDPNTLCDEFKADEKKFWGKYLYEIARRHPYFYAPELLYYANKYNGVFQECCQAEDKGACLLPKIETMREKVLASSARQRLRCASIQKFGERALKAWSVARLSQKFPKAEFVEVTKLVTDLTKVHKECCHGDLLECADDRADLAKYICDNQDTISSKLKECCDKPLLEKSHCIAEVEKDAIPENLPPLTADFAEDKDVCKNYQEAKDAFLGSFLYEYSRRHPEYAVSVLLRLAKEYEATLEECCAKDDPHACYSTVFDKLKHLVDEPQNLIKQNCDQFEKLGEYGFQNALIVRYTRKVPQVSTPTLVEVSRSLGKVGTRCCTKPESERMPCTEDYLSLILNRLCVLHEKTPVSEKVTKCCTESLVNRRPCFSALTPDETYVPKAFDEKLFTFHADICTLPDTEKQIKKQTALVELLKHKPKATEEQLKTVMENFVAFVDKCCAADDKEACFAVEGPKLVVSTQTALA
UniProt Q9UHD2, whole entry: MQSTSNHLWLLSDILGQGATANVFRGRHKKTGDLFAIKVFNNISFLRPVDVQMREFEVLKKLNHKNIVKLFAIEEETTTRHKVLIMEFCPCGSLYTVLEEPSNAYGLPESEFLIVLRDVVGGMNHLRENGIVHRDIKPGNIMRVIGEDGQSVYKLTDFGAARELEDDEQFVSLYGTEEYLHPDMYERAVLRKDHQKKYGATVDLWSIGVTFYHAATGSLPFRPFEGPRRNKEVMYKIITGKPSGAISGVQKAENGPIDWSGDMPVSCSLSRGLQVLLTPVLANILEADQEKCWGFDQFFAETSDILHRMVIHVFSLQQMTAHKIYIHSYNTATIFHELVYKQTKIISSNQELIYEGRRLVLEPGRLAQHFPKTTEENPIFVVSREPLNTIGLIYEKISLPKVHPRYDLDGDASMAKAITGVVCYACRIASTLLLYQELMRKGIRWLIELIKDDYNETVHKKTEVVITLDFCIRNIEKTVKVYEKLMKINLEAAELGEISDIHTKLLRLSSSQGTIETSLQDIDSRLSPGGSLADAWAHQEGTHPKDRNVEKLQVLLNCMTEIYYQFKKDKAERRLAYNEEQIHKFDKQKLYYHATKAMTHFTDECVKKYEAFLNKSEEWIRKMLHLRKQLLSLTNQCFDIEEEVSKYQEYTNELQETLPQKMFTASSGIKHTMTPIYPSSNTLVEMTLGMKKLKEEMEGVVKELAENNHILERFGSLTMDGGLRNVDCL
UniProt P05177, whole entry: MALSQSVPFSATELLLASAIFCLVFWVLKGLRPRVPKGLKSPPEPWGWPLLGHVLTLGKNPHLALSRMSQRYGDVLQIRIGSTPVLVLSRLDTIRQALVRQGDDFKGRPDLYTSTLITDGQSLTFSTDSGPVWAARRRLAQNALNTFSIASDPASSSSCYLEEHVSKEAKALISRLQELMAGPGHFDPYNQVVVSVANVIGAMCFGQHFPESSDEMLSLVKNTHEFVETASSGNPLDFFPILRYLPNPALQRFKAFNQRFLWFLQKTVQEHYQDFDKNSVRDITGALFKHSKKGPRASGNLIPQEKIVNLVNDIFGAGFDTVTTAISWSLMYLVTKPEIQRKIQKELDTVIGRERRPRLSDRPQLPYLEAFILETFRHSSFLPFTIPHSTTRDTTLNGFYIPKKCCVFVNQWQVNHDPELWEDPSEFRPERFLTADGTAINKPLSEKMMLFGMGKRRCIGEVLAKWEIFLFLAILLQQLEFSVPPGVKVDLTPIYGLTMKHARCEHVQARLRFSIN
UniProt P08183, whole entry: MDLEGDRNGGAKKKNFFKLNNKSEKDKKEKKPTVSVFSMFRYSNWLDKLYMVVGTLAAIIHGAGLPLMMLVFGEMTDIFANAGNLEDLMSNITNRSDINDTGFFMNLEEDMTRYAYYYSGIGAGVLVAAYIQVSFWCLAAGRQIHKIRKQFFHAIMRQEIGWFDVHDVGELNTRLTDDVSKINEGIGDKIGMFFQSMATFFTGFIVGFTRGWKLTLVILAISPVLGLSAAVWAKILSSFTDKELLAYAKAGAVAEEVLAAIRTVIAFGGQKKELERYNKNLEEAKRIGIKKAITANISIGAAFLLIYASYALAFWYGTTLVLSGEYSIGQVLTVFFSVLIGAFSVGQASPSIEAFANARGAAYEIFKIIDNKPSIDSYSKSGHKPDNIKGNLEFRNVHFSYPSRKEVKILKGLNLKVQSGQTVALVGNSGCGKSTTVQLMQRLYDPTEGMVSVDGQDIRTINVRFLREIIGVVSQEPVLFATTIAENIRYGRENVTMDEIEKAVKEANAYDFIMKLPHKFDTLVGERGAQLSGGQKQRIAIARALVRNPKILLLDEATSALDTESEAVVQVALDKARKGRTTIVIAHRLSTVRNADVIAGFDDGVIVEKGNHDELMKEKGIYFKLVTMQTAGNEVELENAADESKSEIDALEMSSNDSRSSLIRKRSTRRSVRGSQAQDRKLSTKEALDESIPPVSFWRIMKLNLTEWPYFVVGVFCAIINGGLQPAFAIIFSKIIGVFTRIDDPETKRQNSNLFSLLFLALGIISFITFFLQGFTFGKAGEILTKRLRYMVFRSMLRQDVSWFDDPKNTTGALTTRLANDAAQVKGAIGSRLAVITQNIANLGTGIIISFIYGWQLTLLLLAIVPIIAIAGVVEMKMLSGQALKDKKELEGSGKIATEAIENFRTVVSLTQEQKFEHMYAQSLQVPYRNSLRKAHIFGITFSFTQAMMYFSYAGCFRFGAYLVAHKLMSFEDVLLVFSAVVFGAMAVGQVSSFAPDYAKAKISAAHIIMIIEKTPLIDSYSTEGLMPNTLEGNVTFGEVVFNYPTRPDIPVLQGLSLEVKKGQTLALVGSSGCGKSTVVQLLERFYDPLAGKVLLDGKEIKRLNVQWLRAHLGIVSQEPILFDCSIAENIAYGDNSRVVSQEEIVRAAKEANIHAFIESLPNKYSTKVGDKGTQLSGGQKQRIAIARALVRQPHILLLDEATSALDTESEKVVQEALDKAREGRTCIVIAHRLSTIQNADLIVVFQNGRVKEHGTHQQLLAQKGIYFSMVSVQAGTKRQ

| Substance | target or system | test | system | conditions | scale | measurement | value |
| --- | --- | --- | --- | --- | --- | --- | --- |
| Cc1ccc2nc(N3CCN(C(=O)Cc4ccccc4)CC3)sc2c1 | ALB | binding, fluorescence quenching | – | pH 7.4 | – | IC50 | 40.1 µM |
| Cc1cc2ccccc2n1CCNC(=O)c1ccc(-c2nnn[nH]2)cc1 | – | nephelometry | PBS with 1% DMSO | pH 7.4 | – | kinetic solubility | 0.257 µM (≈ 0.089 µg/mL) |
| O=C(Nc1ccccc1)c1cc([N+](=O)[O-])ccc1Cl | Salmonella typhimurium | Ames plate incorporation | TA98 | 1500 µg/plate, without metabolic activation | – | revertants | 309 ± 23 revertants/plate |
| COc1cc(OC)c2ccccc2c1C=C1C(=O)NC(=S)NC1=O | – | – | C57BL/6 mouse | intraperitoneal, dose not given, over two weeks daily | – | body weight loss | ≤ 10% |
| zidovudine | human PBM cells | cytotoxicity | – | – | – | CC50 | > 100 µM |
| CCCCCCCCCCCCCCCC(=O)NCCCC[C@H](NC(=O)CNC(=O)[C@H](CO)NC(=O)CNC(=O)[C@H](CCC(N)=O)NC(=O)[C@H](Cc1c[nH]cn1)NC(=O)[C@H](Cc1c[nH]c2ccccc12)NC(=O)[C@H](CC(N)=O)NC(=O)CNC(=O)[C@@H](NC(=O)[C@H](CO)NC(=O)[C@H](CC(=O)O)NC(=O)[C@H](CC(C)C)NC(=O)[C@@H](NC(=O)[C@H](CCCCN)NC(=O)[C@H](CC(N)=O)NC(=O)[C@H](CO)NC(=O)[C@H](CCCNC(=N)N)NC(=O)[C@H](CCCNC(=N)N)NC(=O)[C@@H](NC(=O)[C@H](Cc1c[nH]c2ccccc12)NC(=O)[C@H](CCC(=O)O)NC(=O)[C@H](CCCCN)NC(=O)[C@H](CO)NC(=O)[C@H](CCC(=O)O)NC(=O)[C@H](CCC(=O)O)NC(=O)[C@H](CC(C)C)NC(=O)[C@H](CC(=O)O)NC(=O)[C@H](CO)NC(=O)[C@H](CCCCN)NC(=O)[C@@H](NC(=O)[C@H](CCCCN)NC(=O)[C@H](CC(N)=O)NC(=O)[C@H](CC(C)C)NC(=O)[C@@H](NC(=O)[C@@H](NC(=O)[C@H](CO)NC(=O)[C@@H](NC(=O)[C@H](CC(=O)O)NC(=O)[C@@H](N)[C@@H](C)CC)[C@@H](C)CC)[C@@H](C)CC)C(C)C)[C@@H](C)CC)[C@@H](C)CC)[C@@H](C)CC)[C@@H](C)CC)C(=O)O | – | – | PBS | – | – | solubility | 70 ± 20 µg/mL (≈ 14.4 µM) |
| CCCCCCCCCCCCCC(=S)NCCCC[C@H](NC(=O)OCc1ccccc1)C(=O)Nc1cccc(O)c1 | HME1 | cell growth | – | normal cells K-Ras wild type | – | GI50 | 11 ± 4 µM |
| C=C[C@@H]1[C@H]2CCC[C@]1(c1cccc(O)c1)CCN2CCc1ccccc1 | – | – | rat cytosol 2 mg/mL | 1 µM, pH 7.4 | – | half-life | 1.36 h |
| Cc1cc(C)c(CNC(=O)c2cc(-c3ccc(N4CCN(CCNC(=O)CC56CC7CC(CC(C7)C5)C6)CC4)nc3)cc3c2cnn3C(C)C)c(=O)[nH]1 | – | – | mouse MDA-MB-468 xenograft | i.p., 150 mg/kg once daily, 36 days | – | tolerability | not toxic |
| CCN1CCN(Cc2ccc(NC(=O)c3ccc(C)c(/C=C/c4cnc5[nH]ccc5c4OC)c3)cc2C(F)(F)F)CC1 | Serine/threonine-protein kinase TBK1 (TBK1, Homo sapiens, UniProt Q9UHD2) | kinase-CDC37 interaction, inhibitor | human cells | 5 µM | reference: vehicle | log2 fold change | -0.053 |
| CC(CCC(=O)N(CCNC(=O)C(F)(F)F)CC(=O)O)[C@H]1CC[C@H]2[C@@H]3[C@H](O)C[C@@H]4C[C@H](O)CC[C@]4(C)[C@H]3C[C@H](O)[C@]12C (some centres unmarked) | – | – | mouse, gallbladder | – | reference: MRI over LC-MS/MS | concentration ratio | 2.3 fold |
| Cc1ccc(CCNC(=O)c2cnn3c(O)c(Cc4cc(C)ccc4C)c(C)nc23)cc1 | – | dynamic light scattering | assay buffer | 40 µM, without Tween 20 | – | particle size | 628 nm |
| C[C@H](Cc1ccc(O)c(O)c1)[C@@H](C)Cc1ccc(O)c(O)c1 | – | – | human skin | 3% w/v solution, 8 h, no UV exposure | – | amount in epidermis | 12.3 ± 1.87 µg |
| O=[N+]([O-])O[C@H]1CO[C@H]2[C@@H]1OC[C@H]2O[N+](=O)[O-] | HaCaT | – | – | 100 µM, 18 h | – | viability | 110% |
| c1ccc(N2CCN(c3nc4cc5c(cc4s3)OCCO5)CC2)cc1 | ALB | binding, fluorescence quenching | – | pH 7.4 | – | IC50 | 38.5 µM |
| CC#C/C(=N\OC[C@H]1COCCN1)c1ccc2ncnc(Nc3ccc(OCc4cccc(F)c4)c(Cl)c3)c2c1 | – | – | nude mouse | oral | – | clinically relevant dose | 50 to 100 mg/kg |
| CC[C@@H](C(N)=O)N1CCCC1=O | – | LC-MS/MS | rat, paraoxon-induced status epilepticus, whole blood | intramuscular, 50 mg/kg levetiracetam, together with: atropine 5 mg/kg | – | terminal half-life | 1.62 h |
| CO[C@]12CC[C@@]3(C[C@@H]1C(C)(C)O)[C@H]1Cc4ccc(O)c5c4[C@@]3(CCN1CC1CC1)[C@H]2O5 | Cytochrome P450 1A2 (CYP1A2, Homo sapiens, UniProt P05177) | – | human liver microsomes | 10 µM | – | inhibition | 6% |
| Oc1ccc(C2NCCc3c2[nH]c2ccc(Cl)cc32)cc1O (centres unmarked) | – | dynamic light scattering | assay buffer | 40 µM, without Tween 20 | – | particle size | 1440 nm |
| CC(=O)N1C[C@@H](COP(=O)(N(C)C)N2C[C@@H](COP(=O)(N(C)C)N3C[C@@H](COP(=O)(N(C)C)N4C[C@@H](COP(=O)(N(C)C)N5C[C@@H](COP(=O)(N(C)C)N6C[C@@H](COP(=O)(N(C)C)N7C[C@@H](COP(=O)(N(C)C)N8C[C@@H](COP(=O)(N(C)C)N9C[C@@H](COP(=O)(N(C)C)N%10C[C@@H](COP(=O)(N(C)C)N%11C[C@@H](COP(=O)(N(C)C)N%12C[C@@H](COP(=O)(N(C)C)N%13C[C@@H](COP(=O)(N(C)C)N%14C[C@@H](COP(=O)(N(C)C)N%15C[C@@H](COP(=O)(N(C)C)N%16C[C@@H](COP(=O)(N(C)C)N%17C[C@@H](COP(=O)(N(C)C)N%18C[C@@H](COP(=O)(N(C)C)N%19C[C@@H](COP(=O)(N(C)C)N%20C[C@@H](COP(=O)(N(C)C)N%21C[C@@H](COP(=O)(N(C)C)N%22C[C@@H](COP(=O)(N(C)C)N%23C[C@@H](COP(=O)(N(C)C)N%24CCN(C(=O)CCCN%25C(=O)CC(SC[C@H](NC(=O)[C@H](CCCNC(=N)N)NC(=O)[C@H](CCCNC(=N)N)NC(=O)[C@H](CCCNC(=N)N)NC(=O)[C@H](CCCNC(=N)N)NC(=O)[C@H](Cc%26ccccc%26)NC(=O)[C@H](Cc%26ccccc%26)NC(=O)[C@H](CCCNC(=N)N)NC(=O)[C@H](CCCNC(=N)N)NC(=O)[C@H](CCCNC(=N)N)NC(=O)[C@H](CCCNC(=N)N)NC(=O)[C@@H](N)CCCNC(=N)N)C(N)=O)C%25=O)CC%24)O[C@@H](n%24cnc%25c(=O)[nH]c(N)nc%25%24)C%23)O[C@@H](n%23cc(C)c(=O)[nH]c%23=O)C%22)O[C@@H](n%22ccc(N)nc%22=O)C%21)O[C@@H](n%21cnc%22c(N)ncnc%22%21)C%20)O[C@@H](n%20cc(C)c(=O)[nH]c%20=O)C%19)O[C@@H](n%19ccc(N)nc%19=O)C%18)O[C@@H](n%18cc(C)c(=O)[nH]c%18=O)C%17)O[C@@H](n%17cc(C)c(=O)[nH]c%17=O)C%16)O[C@@H](n%16cnc%17c(=O)[nH]c(N)nc%17%16)C%15)O[C@@H](n%15ccc(N)nc%15=O)C%14)O[C@@H](n%14cnc%15c(=O)[nH]c(N)nc%15%14)C%13)O[C@@H](n%13ccc(N)nc%13=O)C%12)O[C@@H](n%12ccc(N)nc%12=O)C%11)O[C@@H](n%11cnc%12c(N)ncnc%12%11)C%10)O[C@@H](n%10cc(C)c(=O)[nH]c%10=O)C9)O[C@@H](n9cc(C)c(=O)[nH]c9=O)C8)O[C@@H](n8cc(C)c(=O)[nH]c8=O)C7)O[C@@H](n7cc(C)c(=O)[nH]c7=O)C6)O[C@@H](n6cc(C)c(=O)[nH]c6=O)C5)O[C@@H](n5cnc6c(=O)[nH]c(N)nc65)C4)O[C@@H](n4cc(C)c(=O)[nH]c4=O)C3)O[C@@H](n3cnc4c(=O)[nH]c(N)nc43)C2)O[C@@H](n2cnc3c(=O)[nH]c(N)nc32)C1 (some centres unmarked) | BCBL1 cells | – | – | 8 and 16 µM | – | cytotoxicity | not toxic |
| CCOc1ccc2cc(-c3nn(CC4CCN(C)CC4)c4ncnc(N)c34)ccc2n1 | – | – | – | concentration not given, mouse | – | half-life | > 2 h |
| CO[C@]12CC[C@@]3(C[C@@H]1C(C)(C)O)[C@H]1Cc4ccc(O)c5c4[C@@]3(CCN1CC1CC1)[C@H]2O5 | ATP-dependent translocase ABCB1 (ABCB1, Homo sapiens, UniProt P08183) | P-gp ATPase activity | – | 5 µM, 40 min | reference: basal activity, negative means inhibition | fold stimulation | -0.59 ± 0.77 fold |
| O=C(NCc1ccc2c(c1)OCO2)C(=O)Nc1ccccc1 | ALB | binding, fluorescence quenching | – | pH 7.4 | – | IC50 | > 100 µM |
| COc1ccc2[nH]cc(CCNC(=O)[C@H](Cc3ccncc3)NC(=O)[C@H](Cc3ccc(Cl)cc3)NC(=O)[C@H](Cc3c[nH]c4ccc(O)cc34)NC(=O)CCCN)c2c1 | – | – | SOD1(G93A) mice | intraperitoneal, 30 mg/kg daily, several weeks | – | toxicity | not toxic |
| CCCc1nn2c(=O)cc(CSc3nc(-c4ccc(C)cc4)nc4cc(=O)[nH]n34)nc2s1 | – | dynamic light scattering | assay buffer | 40 µM, with Tween 20 | – | particle size | 7.2 nm |
| CSCC[C@@H](C=O)NC(=O)[C@H](CC(C)C)NC(=O)[C@H](CC(C)C)NC(C)=O | MDCK | neutral red uptake | – | 48 h | – | CC50 | > 100 µM |
